Results of several laboratories.
Protocols differ between the studies behind these lines. Numbers after ± are the reported error.
CXCR4: C-X-C chemokine receptor type 4 (CXCR4, Homo sapiens, UniProt P61073)
Sequence of UniProt P61073 (whole entry, looked up): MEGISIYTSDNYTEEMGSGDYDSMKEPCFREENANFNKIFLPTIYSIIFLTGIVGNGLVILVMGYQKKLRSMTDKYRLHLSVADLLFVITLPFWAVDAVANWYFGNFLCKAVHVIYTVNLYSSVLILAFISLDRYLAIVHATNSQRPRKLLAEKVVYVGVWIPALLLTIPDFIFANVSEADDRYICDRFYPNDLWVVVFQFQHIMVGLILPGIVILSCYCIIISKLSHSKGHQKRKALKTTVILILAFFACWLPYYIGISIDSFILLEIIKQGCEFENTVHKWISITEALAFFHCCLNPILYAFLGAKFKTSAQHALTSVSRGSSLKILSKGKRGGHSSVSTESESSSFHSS
PARP1: Poly [ADP-ribose] polymerase 1 (PARP1, Homo sapiens, UniProt P09874)
Sequence of UniProt P09874 (whole entry, looked up): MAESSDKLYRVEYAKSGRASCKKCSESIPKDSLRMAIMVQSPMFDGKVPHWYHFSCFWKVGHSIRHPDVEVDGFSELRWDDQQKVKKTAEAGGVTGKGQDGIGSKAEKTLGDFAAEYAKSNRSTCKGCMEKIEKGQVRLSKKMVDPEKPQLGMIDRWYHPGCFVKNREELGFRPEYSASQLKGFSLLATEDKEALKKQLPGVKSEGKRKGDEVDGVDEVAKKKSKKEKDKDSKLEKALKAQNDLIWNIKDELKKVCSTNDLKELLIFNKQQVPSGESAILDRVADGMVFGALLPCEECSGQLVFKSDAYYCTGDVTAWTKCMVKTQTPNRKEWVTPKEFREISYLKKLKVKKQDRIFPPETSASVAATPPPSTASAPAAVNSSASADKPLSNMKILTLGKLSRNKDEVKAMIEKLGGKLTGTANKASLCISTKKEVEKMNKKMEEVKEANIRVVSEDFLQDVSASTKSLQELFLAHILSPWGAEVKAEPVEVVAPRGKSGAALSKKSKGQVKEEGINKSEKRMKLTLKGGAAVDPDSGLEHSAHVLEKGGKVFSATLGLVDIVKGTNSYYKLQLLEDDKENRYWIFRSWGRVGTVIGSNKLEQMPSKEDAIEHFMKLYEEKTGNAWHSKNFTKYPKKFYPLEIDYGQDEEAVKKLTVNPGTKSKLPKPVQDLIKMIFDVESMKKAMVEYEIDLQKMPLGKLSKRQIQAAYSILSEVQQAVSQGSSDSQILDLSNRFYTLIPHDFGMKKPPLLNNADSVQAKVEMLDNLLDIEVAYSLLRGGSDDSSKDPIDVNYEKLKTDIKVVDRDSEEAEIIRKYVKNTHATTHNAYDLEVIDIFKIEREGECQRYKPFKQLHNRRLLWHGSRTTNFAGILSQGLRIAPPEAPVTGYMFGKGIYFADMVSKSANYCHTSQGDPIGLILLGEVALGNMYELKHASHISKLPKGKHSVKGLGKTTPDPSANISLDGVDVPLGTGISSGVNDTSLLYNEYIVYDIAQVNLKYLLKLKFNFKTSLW
CYP1A2: Cytochrome P450 1A2 (CYP1A2, Homo sapiens, UniProt P05177)
Sequence of UniProt P05177 (whole entry, looked up): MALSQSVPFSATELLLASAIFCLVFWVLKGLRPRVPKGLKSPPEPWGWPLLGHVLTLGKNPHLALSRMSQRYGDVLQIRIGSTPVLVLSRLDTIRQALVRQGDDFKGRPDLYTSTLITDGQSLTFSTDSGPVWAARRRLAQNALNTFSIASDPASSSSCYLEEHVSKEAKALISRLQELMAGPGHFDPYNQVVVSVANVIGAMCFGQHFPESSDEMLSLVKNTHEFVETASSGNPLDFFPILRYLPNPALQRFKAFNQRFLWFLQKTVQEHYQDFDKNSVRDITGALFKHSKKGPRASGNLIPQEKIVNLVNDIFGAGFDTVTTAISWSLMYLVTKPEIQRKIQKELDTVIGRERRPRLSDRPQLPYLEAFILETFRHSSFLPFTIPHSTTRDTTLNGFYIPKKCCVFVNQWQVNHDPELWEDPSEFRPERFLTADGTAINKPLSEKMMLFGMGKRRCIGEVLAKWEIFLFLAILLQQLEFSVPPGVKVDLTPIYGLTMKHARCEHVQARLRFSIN
CDK2: Cyclin-dependent kinase 2 (CDK2, Homo sapiens, UniProt P24941)
CELA1: Chymotrypsin-like elastase family member 1 (CELA1, Sus scrofa, UniProt P00772)
Sequence of UniProt P00772 (whole entry, looked up): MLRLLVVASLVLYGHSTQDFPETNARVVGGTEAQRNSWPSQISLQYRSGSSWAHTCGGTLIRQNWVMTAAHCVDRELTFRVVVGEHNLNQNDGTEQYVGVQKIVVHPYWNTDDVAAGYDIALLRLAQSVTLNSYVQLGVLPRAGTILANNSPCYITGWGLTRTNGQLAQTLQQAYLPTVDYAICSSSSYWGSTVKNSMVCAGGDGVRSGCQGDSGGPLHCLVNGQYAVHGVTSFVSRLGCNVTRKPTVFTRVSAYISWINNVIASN
CDC7 with DBF4: Cell division cycle 7-related protein kinase, with DBF4 (CDC7, Homo sapiens, UniProt O00311)
Sequence of UniProt O00311 (whole entry, looked up): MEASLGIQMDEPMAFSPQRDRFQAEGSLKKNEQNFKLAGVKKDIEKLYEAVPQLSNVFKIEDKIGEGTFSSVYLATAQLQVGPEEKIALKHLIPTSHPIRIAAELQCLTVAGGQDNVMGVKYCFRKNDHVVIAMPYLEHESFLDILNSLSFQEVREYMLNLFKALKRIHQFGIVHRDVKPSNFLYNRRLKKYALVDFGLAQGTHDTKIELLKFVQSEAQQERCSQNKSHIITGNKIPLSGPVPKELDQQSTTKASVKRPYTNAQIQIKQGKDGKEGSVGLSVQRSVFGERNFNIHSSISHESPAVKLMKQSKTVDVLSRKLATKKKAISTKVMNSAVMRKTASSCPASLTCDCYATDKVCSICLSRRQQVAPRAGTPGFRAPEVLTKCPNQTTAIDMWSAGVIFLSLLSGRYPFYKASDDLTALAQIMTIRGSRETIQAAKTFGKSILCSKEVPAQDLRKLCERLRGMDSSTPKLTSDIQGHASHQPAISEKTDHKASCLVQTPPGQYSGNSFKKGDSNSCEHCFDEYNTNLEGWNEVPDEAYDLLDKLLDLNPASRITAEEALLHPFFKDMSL
FAAH: Fatty-acid amide hydrolase 1 (FAAH, Homo sapiens, UniProt O00519)
Sequence of UniProt O00519 (whole entry, looked up): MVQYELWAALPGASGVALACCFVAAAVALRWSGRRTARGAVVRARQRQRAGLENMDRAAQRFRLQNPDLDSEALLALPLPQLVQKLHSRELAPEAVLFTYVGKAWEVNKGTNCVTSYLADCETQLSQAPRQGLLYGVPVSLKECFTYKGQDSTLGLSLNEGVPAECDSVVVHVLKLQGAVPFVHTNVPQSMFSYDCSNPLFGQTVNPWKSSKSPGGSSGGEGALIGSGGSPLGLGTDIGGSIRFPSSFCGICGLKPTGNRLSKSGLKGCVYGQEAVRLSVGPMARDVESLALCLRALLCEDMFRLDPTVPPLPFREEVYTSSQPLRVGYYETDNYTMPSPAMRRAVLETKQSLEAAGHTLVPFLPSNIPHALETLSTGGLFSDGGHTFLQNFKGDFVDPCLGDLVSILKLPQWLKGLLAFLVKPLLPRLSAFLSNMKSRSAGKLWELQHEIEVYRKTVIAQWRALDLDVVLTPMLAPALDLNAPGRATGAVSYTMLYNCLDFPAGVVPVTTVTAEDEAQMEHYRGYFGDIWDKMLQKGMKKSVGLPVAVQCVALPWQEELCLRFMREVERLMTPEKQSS
Sequence of UniProt Q16881 (whole entry, looked up): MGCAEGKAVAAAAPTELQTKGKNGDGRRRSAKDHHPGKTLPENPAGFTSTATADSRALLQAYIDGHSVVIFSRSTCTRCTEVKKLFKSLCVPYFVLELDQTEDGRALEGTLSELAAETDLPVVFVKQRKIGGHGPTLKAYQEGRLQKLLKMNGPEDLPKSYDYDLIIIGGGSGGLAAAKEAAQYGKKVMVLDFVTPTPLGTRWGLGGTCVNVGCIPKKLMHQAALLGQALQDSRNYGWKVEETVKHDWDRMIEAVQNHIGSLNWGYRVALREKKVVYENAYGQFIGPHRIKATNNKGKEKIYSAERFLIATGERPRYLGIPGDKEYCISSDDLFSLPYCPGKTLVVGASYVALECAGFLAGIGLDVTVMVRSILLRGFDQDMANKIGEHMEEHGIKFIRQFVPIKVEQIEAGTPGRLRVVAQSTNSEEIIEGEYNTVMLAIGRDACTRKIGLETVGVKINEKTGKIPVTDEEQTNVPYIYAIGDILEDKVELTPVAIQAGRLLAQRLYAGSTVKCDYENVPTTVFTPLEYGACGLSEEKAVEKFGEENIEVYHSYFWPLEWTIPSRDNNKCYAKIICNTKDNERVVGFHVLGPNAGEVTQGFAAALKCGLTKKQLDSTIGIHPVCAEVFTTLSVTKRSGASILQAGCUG
Sequence of UniProt Q62668 (whole entry, looked up): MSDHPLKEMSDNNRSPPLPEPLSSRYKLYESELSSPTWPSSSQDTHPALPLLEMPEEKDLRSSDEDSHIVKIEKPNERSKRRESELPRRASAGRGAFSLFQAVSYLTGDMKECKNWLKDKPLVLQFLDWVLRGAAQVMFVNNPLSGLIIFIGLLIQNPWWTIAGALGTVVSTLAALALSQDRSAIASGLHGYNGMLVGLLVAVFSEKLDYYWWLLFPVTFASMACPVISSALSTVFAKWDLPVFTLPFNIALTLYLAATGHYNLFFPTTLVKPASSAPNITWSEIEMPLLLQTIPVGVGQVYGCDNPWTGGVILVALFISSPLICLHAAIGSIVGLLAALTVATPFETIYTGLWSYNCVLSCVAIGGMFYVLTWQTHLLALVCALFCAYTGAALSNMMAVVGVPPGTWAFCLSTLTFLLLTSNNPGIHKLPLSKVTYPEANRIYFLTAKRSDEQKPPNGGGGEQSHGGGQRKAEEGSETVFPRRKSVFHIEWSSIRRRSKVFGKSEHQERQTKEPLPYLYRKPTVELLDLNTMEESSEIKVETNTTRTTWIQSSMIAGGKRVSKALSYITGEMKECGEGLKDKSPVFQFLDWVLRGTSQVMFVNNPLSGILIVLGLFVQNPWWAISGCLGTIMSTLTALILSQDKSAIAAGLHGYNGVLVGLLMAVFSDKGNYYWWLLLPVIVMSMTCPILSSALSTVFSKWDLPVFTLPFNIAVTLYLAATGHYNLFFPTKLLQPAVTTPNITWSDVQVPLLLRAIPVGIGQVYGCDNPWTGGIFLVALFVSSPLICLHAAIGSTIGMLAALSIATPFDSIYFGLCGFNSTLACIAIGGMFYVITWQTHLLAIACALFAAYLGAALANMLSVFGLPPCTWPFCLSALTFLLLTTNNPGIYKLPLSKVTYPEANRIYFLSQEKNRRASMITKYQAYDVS

Substance | target | assay | test system | conditions | IC50
COc1cc2nc(NCc3ccc(CNCCCN4CCCCC4)cc3)nc(NC3CCNCC3)c2cc1OC | CXCR4 | ligand displacement, radioligand |  | cell membranes | 0.0878 µM
O=C(/C=C/c1nc2cc(F)ccc2[nH]1)c1c(-c2ccc(F)cc2)c2cc(F)ccc2[nH]c1=O | RAC-alpha serine/threonine-protein kinase (AKT1, Homo sapiens, UniProt P31749) | enzyme activity, inhibitor, FRET |  |  | 15.6 µM
CC[C@@H](C(=O)O)[C@H]1CCN[C@@H]1C(=O)O | AMPA receptor, rat | binding | cortical synaptosomes | together with: [3H]-AMPA | > 100 µM
NC(=O)c1cccc2c1OCCCO2 | PARP1 |  |  |  | > 2.5 µM
Cn1ccnc1C(=O)C1CC1c1ccc(CC(=O)Nc2ccc(Br)cc2)cc1 (stereo not shown) | Histone deacetylase 8 (HDAC8, Homo sapiens, UniProt Q9BY41) | enzyme activity, inhibitor |  |  | 8.5 µM
CC(=O)CSc1n(C)c(C)c(C)[n+]1C | Coagulation factor XIII A chain (F13A1, Homo sapiens, UniProt P00488) | isopeptidase activity, inhibitor |  | form not specified, together with: A101 substrate | ~0.25 µM
COc1cc(/C=C/C(=O)CC(=O)/C=C/c2ccc(O)c(OC)c2)ccc1O | Hsd3b1 (Rattus norvegicus, UniProt P22071) | enzyme activity, inhibitor | rat testicular microsomes | lower bound from 100 µM screen, together with: pregnenolone | < 100 µM
O=C(O)C1=CC(=C(c2ccc(O)c(C(=O)O)c2)c2ccc(O)c(C(=O)O)c2)C=CC1=O | PABPN1 (Homo sapiens, UniProt Q86U42) | inhibitor, AlphaScreen counterscreen |  |  | 4.38 µM
NC(=O)[C@H]1CCN(c2ncnc(N)c2F)C[C@@H]1N1CCC[C@@H](Nc2cc(Cl)cc(C(F)(F)F)c2)C1=O | Tyrosine-protein kinase BTK (BTK, Homo sapiens, UniProt Q06187) | phosphorylation, inhibitor | human whole blood | 0.5 h, healthy donors, mean | 0.05 µM
O=C(Nc1cc(Cl)c(F)c(Cl)c1)c1cc(S(=O)(=O)N2CCOCC2)c(Cl)cc1Cl | Lysophosphatidic acid receptor 3 (LPAR3, Homo sapiens, UniProt Q9UBY5) | Ca2+ mobilization, antagonist | RH7777 | together with: LPA at EC50 | > 100 µM
C#Cc1ccc2ccc(=O)oc2c1 | CYP1A2 | enzyme activity, inhibitor |  | 6 min, pH 7.6 | 15.8 µM
Nc1nc(N)c(N=O)c(OCc2ccc(Cl)cc2)n1 | CDK2 | enzyme activity, inhibitor |  |  | > 10 µM
COc1ccc(-c2cc(=O)c3c(OC)c([C@@H]4O[C@H](CO)[C@@H](O)[C@H](O)[C@H]4O)c(OC)cc3o2)cc1OC | Glycogen synthase kinase-3 beta (GSK3B, Homo sapiens, UniProt P49841) | enzyme activity, inhibitor, ADP detection |  |  | 239 µM
O=C(O[C@@H]1Cc2c(O)cc(O)cc2O[C@@H]1c1cc(O)c(O)c(O)c1)c1cc(O)c(O)c(O)c1 | CELA1 | enzyme activity, inhibitor |  | 5 min, pH 8.0, 25 °C, together with: N-succinyl-Ala-Ala-Ala-p-nitroanilide 1 mM | 209 ± 7 µg/mL
c1nc2c(NCc3ccc(CNCCCNC4CCCCC4)cc3)nc(N3CCNCC3)nc2[nH]1 | CXCR4 | ligand displacement, radioligand |  | cell membranes | 0.0181 µM
CC[n+]1c(/C=C/N(C)c2ccccc2)n(-c2ccccc2)c2ccc(-c3nc4ccccc4s3)cc21 | Proteasome Macropain subunit MB1 (PSMB5, Homo sapiens, UniProt P28074) | enzyme activity |  | together with: Suc-LLVY-AMC substrate, ATP | 1.5 ± 0.3 µM
O=C(O)/C=C/c1ccc(O)c(O)c1 | CDC7 with DBF4 | enzyme activity, inhibitor, ADP-Glo luminescence |  | together with: ATP 12.5 µM | 6.19 ± 0.42 µM
O=C(O)C(CCCO)[C@@H]1CCN[C@H]1C(=O)O (relative stereo) | AMPA receptor, rat | binding | cortical synaptosomes | together with: [3H]-AMPA | > 100 µM
CCCOC(=O)c1ccc(O)cc1 | FAAH | enzyme activity, inhibitor, fluorimetric |  | 5 min preincubation, recombinant enzyme, together with: OMP substrate 50 µM | 9.4 ± 1 µM
CCc1ccc(OC)cc1-n1c(C=C(C)C)c(C(=O)N2CCNCC2)cc(-c2nc(-c3ccc(Cl)cc3)cs2)c1=O (single isomer, unassigned) | Isocitrate dehydrogenase [NADP] cytoplasmic (IDH1, Homo sapiens, UniProt O75874, R132C) | enzyme activity, inhibitor |  |  | 0.67 µM
CN(C)C/C=C/C(=O)Nc1cccc(S(=O)(=O)N2CCC(NC(=O)c3n[nH]cc3NC(=O)c3c(Cl)cc(Cl)cc3Cl)CC2)c1 | CDK2 | target engagement in cells, BRET |  |  | 0.256 µM
cyclohexylthiourea | Urea transporter 2 (Rattus norvegicus, UniProt Q62668) | urea transport | MDCK expressing YFP and AQP1 | 20 min, together with: 800 mM urea gradient | 3700 ± 200 µM
CCCCC(C(=O)COc1c(F)c(F)cc(F)c1F)n1cc(C2(N)CCNCC2)nn1 (stereo not shown) | DPAP1 (Plasmodium falciparum, UniProt Q8IIJ9) | inhibitor, fluorogenic substrate | Plasmodium falciparum lysate | 30 min | > 20 µM

Substance | target | assay | test system | conditions | IC50
COC(=O)c1ccc(NC(=O)Cn2c(=S)n(-c3ccccc3)c(=O)c3ccccc32)cc1 | PARP1 | enzyme activity |  |  | 0.0557 µM
CC1=NN(c2cccc(C(=O)O)c2)C(=O)/C1=C\c1ccc(-c2ccc(Cl)c(C(=O)NC3CC3)c2)o1 | DNA repair protein complementing XP-A cells (Homo sapiens, UniProt P23025) | binding to cisplatin-DNA, EMSA |  | concentration not given, full-length XPA | ~32 µM
COC(=O)c1cc2c(C(F)(F)F)cc(-c3ccccc3)cc2n1O | L-lactate dehydrogenase B chain (LDHB, Homo sapiens, UniProt P07195) | inhibitor, NADH fluorescence |  | NADH competition, together with: 1440 µM pyruvate, 40 µM NADH | 55.8 ± 7.1 µM
O=C(O)c1cc2ccccc2c(Cc2c(O)c(C(=O)O)cc3ccccc23)c1O | DNA polymerase iota (Homo sapiens, UniProt Q9UNA4) | enzyme activity, inhibitor |  |  | 4.9 µM
O=C(NC1CCCCC1)Oc1cccc(-c2ccccc2)c1 | FAAH | enzyme activity, inhibitor, fluorescence |  | cell membranes | 0.0031 µM
CC1=C(COc2ccc(Br)cc2)C(=O)c2ccccc2C1=O | Thioredoxin reductase 1, cytoplasmic (TXNRD1, Homo sapiens, UniProt Q16881) | enzyme activity, inhibitor |  | pH 7.4, with preincubation | 0.8 µM
COc1ccc(-c2csc(NN=Cc3ccccn3)n2)cc1 | Microtubule-associated protein tau (MAPT, Homo sapiens, UniProt P10636) | ligand displacement, radioligand |  |  | > 10 µM
C#Cc1ccc2c(C)cc(=O)oc2c1 | CYP1A2 | enzyme activity, inhibitor |  | 6 min, pH 7.6 | 2.2 µM
O=C(NCc1ccccc1)c1ccc(O)cc1 | FAAH | enzyme activity, inhibitor, fluorescence |  | with preincubation | 8.6 µM
COc1cccc2cc(-c3nnc(SCC(=O)Nc4ccc(C)c(C)c4)n3-c3ccccc3)oc12 | fungal tyrosinase | enzyme activity, inhibitor, dopachrome absorbance |  | pH 6.8, 37 °C, together with: L-tyrosine substrate | 1.82 ± 5.42 µM
CCCC(=O)N[C@@H](C)C(=O)N[C@H](C(=O)N[C@@H]1C(=O)N[C@@H](CC(C)C)C(=O)N[C@H]2CC[C@@H](O)N(C2=O)[C@@H](Cc2ccccc2)C(=O)N(C)[C@@H](Cc2ccc(O)cc2)C(=O)N[C@@H](C(C)C)C(=O)O[C@@H]1C)[C@H](C)O | CELA1 | enzyme activity, inhibitor |  | with preincubation | 0.24 µM
CN1CCC2(CC1)c1ccccc1N(Cc1ccc(C(=O)NO)s1)C2c1cccc(Cl)c1 (stereo not shown) | Histone deacetylase 8 (Schistosoma mansoni, UniProt A5H660) | enzyme activity, inhibitor, Fluor-de-Lys |  | varied substrate concentration, together with: Fluor-de-Lys substrate 150 µM | 0.055 ± 0.007 µM
CC(=O)Nc1ccc(NC(=S)NC(=O)c2ccc(C(C)(C)C)cc2)cc1 | NAD-dependent protein deacetylase sirtuin-1 (SIRT1, Homo sapiens, UniProt Q96EB6) |  |  |  | > 300 µM
Cc1ncc([N+](=O)[O-])n1CC(C)O (stereo not shown) | Cytochrome P450 2D6 (CYP2D6, Homo sapiens, UniProt P10635) | enzyme activity, inhibitor | human liver microsomes | 30 min, together with: dextromethorphan | > 500 µM
O=S(=O)(c1cc(C(=S)Nc2cc(F)c(F)c(F)c2)c(Cl)cc1Cl)N1CCOCC1 | Lysophosphatidic acid receptor 4 (LPAR4, Homo sapiens, UniProt Q99677) | Ca2+ mobilization, antagonist | CHO | together with: LPA at EC50 | > 100 µM
O=C(O[C@@H]1Cc2c(O)cc(O)cc2O[C@@H]1c1cc(O)c(=O)c2c(O)c(O)cc([C@H]3Oc4cc(O)cc(O)c4C[C@H]3O)c2c1)c1cc(O)c(O)c(O)c1 | CDC7 with DBF4 | enzyme activity, inhibitor, ADP-Glo luminescence |  | together with: ATP 12.5 µM | 4.27 ± 0.53 µM
CC(=O)N1C(=O)Cc2ccccc21 | mbtI (Mycobacterium tuberculosis, UniProt P9WFX1) | enzyme activity, inhibitor, continuous fluorescence |  | together with: chorismate | > 200 µM
CCCCCCCCCCCCCCCCCCCCCCO | 3-hydroxy-3-methylglutaryl-coenzyme A reductase (HMGCR, Homo sapiens, UniProt P04035) | enzyme activity, inhibitor, absorbance |  |  | ~250 µM
Nc1ncnc2c1ncn2[C@@H]1O[C@H](COP(=O)(O)O)[C@@H](O)[C@H]1O | nucleoside diphosphate kinase A/B human | autophosphorylation, inhibitor | native membranes | 4 °C, biphasic curve, unreliable | ~200 µM
COc1ccc(C=CC(=O)c2ccc(NC(=O)CSc3nc4ccccc4c(=O)n3-c3ccccc3)cc2)cc1 | PARP1 | enzyme activity, inhibitor, absorbance |  |  | 0.102 µM
Cc1ccc(-c2nn(-c3ccccc3)cc2C2CC(c3ccc(Br)cc3)=NN2C(=O)CCC(=O)O)cc1 (stereo not shown) | Replication protein A 70 kDa DNA-binding subunit (RPA1, Homo sapiens, UniProt P27694) | protein-nucleic acid interaction, inhibitor, mobility shift |  |  | 56.1 µM
O=c1cc(N2CCOCC2)oc2c(OCc3cccnc3)cccc12 | Phosphatidylinositol 4,5-bisphosphate 3-kinase catalytic subunit beta isoform (PIK3CB, Homo sapiens, UniProt P42338) | enzyme activity, inhibitor |  |  | 2.5 µM
CN1CCN(C2=Nc3ccccc3Oc3ccc(Cl)cc32)CC1 | Multidrug resistance-associated protein 1 (ABCC1, Homo sapiens, UniProt P33527) | efflux, inhibitor | SupT1-Vin overexpressing ABCC1 | together with: DiOC2(3) 100 nM | 12.9 ± 8 µM

For quick reference, copied from above:
Substance | target | assay | test system | conditions | IC50
O=C(Nc1cc(Cl)c(F)c(Cl)c1)c1cc(S(=O)(=O)N2CCOCC2)c(Cl)cc1Cl | Lysophosphatidic acid receptor 3 (LPAR3, Homo sapiens, UniProt Q9UBY5) | Ca2+ mobilization, antagonist | RH7777 | together with: LPA at EC50 | > 100 µM
CC[n+]1c(/C=C/N(C)c2ccccc2)n(-c2ccccc2)c2ccc(-c3nc4ccccc4s3)cc21 | Proteasome Macropain subunit MB1 (PSMB5, Homo sapiens, UniProt P28074) | enzyme activity |  | together with: Suc-LLVY-AMC substrate, ATP | 1.5 ± 0.3 µM
CCc1ccc(OC)cc1-n1c(C=C(C)C)c(C(=O)N2CCNCC2)cc(-c2nc(-c3ccc(Cl)cc3)cs2)c1=O (single isomer, unassigned) | Isocitrate dehydrogenase [NADP] cytoplasmic (IDH1, Homo sapiens, UniProt O75874, R132C) | enzyme activity, inhibitor |  |  | 0.67 µM
